Published values of several laboratories.
Lines come from different studies, so protocols differ. pIC50: −log10 of the molar value.
Target: Tyrosine-protein kinase JAK2 (JAK2, Homo sapiens, UniProt O60674)
Sequence of UniProt O60674 (whole entry, looked up): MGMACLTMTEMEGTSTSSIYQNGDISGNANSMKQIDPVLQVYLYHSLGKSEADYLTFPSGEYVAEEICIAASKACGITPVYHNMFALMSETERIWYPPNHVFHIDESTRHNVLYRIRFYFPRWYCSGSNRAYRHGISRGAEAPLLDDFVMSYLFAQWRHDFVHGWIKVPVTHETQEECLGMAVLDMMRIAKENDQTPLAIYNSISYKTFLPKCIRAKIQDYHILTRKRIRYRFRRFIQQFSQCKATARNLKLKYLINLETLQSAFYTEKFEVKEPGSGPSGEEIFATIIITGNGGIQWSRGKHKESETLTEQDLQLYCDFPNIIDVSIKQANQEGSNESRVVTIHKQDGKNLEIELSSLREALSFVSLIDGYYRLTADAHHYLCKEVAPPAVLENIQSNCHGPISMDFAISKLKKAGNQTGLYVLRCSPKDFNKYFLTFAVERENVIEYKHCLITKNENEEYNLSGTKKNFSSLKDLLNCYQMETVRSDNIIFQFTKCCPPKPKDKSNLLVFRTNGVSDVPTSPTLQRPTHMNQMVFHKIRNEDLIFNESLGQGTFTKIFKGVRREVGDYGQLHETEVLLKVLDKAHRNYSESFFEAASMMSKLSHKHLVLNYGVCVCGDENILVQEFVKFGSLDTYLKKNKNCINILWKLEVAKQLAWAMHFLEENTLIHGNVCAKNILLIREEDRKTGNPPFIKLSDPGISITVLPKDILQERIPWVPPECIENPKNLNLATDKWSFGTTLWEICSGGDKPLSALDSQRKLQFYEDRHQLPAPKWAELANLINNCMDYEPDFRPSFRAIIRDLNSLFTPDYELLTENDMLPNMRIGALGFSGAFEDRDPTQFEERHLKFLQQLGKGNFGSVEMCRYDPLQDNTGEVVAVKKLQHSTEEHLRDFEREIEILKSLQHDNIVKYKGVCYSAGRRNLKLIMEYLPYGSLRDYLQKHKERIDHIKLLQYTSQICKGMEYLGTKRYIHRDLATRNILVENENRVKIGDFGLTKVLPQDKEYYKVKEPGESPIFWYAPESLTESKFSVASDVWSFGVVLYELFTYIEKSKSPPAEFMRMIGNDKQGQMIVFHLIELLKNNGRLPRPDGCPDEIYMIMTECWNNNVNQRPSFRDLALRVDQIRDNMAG

With Nc1ncc(-c2cnn(C3CCNCC3)c2)cc1-c1nc2ccc(Oc3cnccn3)cc2o1 the pIC50 was 6.12 (enzyme activity, inhibitor, TR-FRET).
The pIC50 of Cc1nn(C)c(O)c1-c1nc2cc(Cl)c(Cl)cc2[nH]c1=O is reported as 7.89 (enzyme activity, inhibitor, ADP detection).
For N#C/C(=C\c1cccc(-c2cnc3[nH]cnc3c2)c1)C(N)=O, the pIC50 was < 5.00 (kinase activity, inhibitor; up to highest tested, together with: ATP at Km).
COc1ccc2c(c1)C(=C1Nc3ccccc3C1=NOCC(O)CO)C(=O)N2 (stereo not shown) gave a pIC50 of 7.13 (enzyme activity, inhibitor, radiometric).
The pIC50 of CN(C)c1ccc2nc(-c3cc(-c4cnn(C5CCNCC5)c4)cnc3N)oc2c1 is reported as 6.40 (enzyme activity, inhibitor, TR-FRET).
With CCn1c(C)c(C(=O)c2ccccc2)c(=O)n1-c1cccc(S(N)(=O)=O)c1 the pIC50 was 7.90 (enzyme activity, inhibitor, ADP detection).
C=CC(=O)N1CCc2ccc(-n3c(=O)ccc4cnc5ccc(-c6cnn(C)c6)cc5c43)cc21 gave a pIC50 of < 5.00 (enzyme activity, inhibitor).
With CCn1c(C)c(Sc2ccc(C)cc2)c(=O)n1-c1ccccc1Cl the pIC50 was 7.62 (enzyme activity, inhibitor, ADP detection).
C=CC(=O)Nc1cccc(Cn2ncc3cnc(Nc4cnn(CCOC)c4)nc32)c1 has a pIC50 of < 5.00 (enzyme activity, inhibitor, TR-FRET).
Cn1c(-c2ccccc2)c(-c2nc3ccccc3[nH]c2=O)c2ccccc21 gave a pIC50 of 7.69 (enzyme activity, inhibitor, ADP detection).
The pIC50 of N#Cc1ccc2oc(-c3cc(-c4cnn(C5CCNCC5)c4)cnc3N)nc2c1 is reported as 5.99 (enzyme activity, inhibitor, TR-FRET).
Cc1cnc2nc1Nc1cccc(c1)COC/C=C/COCc1cc(ccc1OCCN1CCOCC1)N2 has a pIC50 of 8.93 (enzyme activity, inhibitor, FRET).
With Nc1ncc(-c2cnn(C3CCNCC3)c2)cc1-c1nc2ccc(O)cc2o1 the pIC50 was 6.92 (kinase activity, HTRF; together with: ATP 10 µM).
The pIC50 of Cc1ccc2oc(-c3c4c(N)n[nH]c(=O)c4nn3-c3ccc(NC(=O)/C=C/CN(C)C)cc3)c(C)c2c1 is reported as < 6.00 (enzyme activity, inhibitor, FRET).
The pIC50 of Nc1ncc(-c2cnn(C3CCNCC3)c2)cc1-c1nc2ccc(N3CCCCC3)cc2o1 is reported as 6.27 (enzyme activity, inhibitor, TR-FRET).
With Cc1cnc(Nc2cc(C)c(C)c(C)c2)nc1Nc1ccc2oc(=O)[nH]c2c1 the pIC50 was 6.38 (enzyme activity, inhibitor).
